Assay results gathered from unrelated publications.
Each numbered part is a random draw from the data of one study; scales do not carry over between parts. Several values in a cell are separate wells, animals, samples, runs or records.
UniProt P10721, sequence (whole entry, unmodified, looked up): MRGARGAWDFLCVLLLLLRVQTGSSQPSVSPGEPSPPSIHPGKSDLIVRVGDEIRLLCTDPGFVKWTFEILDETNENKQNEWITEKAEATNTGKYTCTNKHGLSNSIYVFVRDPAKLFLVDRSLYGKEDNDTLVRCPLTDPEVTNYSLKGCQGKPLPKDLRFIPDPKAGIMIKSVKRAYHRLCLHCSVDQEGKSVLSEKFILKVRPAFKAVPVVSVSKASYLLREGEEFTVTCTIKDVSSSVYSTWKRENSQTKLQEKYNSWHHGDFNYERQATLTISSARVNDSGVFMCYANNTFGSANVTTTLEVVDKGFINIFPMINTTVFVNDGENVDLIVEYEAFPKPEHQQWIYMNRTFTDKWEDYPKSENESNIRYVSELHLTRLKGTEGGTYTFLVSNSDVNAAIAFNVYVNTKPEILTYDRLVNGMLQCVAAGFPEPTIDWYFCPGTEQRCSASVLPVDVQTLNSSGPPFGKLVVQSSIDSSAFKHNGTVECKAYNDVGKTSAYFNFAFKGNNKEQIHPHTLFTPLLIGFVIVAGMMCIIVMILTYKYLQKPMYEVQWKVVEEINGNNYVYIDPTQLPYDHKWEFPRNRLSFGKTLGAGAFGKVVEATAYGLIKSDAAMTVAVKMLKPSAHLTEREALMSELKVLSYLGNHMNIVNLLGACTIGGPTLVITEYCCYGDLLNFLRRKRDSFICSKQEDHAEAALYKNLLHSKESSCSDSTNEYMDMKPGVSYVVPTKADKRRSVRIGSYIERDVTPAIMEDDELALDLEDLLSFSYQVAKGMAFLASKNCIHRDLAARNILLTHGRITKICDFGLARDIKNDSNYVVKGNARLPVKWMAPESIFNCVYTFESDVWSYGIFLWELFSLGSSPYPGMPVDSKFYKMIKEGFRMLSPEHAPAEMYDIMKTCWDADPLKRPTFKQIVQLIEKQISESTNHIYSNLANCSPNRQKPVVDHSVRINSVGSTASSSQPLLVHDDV
UniProt Q15208, sequence (whole entry, looked up): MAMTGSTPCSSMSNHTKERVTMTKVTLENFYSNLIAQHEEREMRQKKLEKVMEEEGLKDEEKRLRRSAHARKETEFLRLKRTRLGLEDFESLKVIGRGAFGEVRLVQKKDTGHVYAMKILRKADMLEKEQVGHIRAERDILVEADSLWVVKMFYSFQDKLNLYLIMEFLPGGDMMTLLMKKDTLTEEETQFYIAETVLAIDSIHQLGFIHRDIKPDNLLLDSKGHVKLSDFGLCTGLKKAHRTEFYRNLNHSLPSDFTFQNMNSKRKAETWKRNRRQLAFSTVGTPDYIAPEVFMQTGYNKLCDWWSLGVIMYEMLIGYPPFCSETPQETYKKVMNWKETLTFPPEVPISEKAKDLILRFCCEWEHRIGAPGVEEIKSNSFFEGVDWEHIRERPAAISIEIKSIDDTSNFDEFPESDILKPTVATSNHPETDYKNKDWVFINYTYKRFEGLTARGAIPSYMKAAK
UniProt Q9Y2I7, sequence (whole entry, looked up): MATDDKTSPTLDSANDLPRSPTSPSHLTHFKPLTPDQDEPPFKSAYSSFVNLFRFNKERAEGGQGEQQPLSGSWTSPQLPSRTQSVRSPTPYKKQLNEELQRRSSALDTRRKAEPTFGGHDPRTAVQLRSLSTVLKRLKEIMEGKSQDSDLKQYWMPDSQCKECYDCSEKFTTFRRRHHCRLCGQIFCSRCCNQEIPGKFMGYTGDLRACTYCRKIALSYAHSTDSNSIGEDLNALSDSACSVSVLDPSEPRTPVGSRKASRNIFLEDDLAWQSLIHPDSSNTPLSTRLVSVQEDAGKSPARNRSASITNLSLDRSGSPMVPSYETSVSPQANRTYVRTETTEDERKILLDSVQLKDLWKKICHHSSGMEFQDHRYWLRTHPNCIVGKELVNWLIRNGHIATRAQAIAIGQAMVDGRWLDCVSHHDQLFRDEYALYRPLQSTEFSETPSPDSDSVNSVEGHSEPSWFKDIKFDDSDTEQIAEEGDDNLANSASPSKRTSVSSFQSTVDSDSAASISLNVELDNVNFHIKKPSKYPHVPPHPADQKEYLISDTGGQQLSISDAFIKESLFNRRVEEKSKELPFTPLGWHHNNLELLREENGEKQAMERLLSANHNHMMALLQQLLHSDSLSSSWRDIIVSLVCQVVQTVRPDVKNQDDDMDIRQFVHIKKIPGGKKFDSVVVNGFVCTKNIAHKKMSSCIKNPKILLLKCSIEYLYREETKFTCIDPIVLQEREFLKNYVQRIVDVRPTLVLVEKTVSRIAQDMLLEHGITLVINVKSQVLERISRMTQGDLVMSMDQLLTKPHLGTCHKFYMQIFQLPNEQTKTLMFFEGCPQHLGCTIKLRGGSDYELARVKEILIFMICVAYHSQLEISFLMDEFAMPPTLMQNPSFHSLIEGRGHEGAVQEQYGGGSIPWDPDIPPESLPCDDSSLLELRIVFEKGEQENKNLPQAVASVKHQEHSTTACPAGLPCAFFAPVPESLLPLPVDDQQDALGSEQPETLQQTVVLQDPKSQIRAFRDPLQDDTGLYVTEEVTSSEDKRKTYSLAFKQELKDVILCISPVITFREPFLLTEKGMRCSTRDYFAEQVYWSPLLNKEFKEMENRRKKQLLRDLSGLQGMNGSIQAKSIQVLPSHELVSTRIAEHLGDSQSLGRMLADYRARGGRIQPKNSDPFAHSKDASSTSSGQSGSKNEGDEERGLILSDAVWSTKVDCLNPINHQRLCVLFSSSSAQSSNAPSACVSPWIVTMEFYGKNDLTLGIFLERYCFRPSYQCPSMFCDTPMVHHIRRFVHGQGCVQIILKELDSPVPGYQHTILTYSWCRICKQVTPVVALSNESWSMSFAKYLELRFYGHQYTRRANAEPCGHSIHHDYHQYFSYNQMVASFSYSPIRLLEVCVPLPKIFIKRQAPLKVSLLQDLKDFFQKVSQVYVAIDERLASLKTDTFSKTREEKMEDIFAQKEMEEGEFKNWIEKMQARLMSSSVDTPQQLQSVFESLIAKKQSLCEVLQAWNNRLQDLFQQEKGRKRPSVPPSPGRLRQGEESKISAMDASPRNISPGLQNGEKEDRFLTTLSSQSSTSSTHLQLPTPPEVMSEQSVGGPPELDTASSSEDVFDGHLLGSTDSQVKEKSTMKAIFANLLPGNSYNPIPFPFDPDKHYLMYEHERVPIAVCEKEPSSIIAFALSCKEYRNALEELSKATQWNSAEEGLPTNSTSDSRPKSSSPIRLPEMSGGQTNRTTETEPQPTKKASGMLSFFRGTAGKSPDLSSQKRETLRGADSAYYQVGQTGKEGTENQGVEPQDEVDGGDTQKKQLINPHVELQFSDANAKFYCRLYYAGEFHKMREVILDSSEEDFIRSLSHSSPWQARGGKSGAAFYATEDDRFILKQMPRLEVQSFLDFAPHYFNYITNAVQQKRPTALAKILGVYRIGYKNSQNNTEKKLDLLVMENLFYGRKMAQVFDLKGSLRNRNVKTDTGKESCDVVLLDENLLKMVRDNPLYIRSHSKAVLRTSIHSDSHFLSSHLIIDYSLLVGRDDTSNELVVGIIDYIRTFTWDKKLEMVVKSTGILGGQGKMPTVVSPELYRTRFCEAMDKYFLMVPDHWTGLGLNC
UniProt P49759, sequence (whole entry, looked up): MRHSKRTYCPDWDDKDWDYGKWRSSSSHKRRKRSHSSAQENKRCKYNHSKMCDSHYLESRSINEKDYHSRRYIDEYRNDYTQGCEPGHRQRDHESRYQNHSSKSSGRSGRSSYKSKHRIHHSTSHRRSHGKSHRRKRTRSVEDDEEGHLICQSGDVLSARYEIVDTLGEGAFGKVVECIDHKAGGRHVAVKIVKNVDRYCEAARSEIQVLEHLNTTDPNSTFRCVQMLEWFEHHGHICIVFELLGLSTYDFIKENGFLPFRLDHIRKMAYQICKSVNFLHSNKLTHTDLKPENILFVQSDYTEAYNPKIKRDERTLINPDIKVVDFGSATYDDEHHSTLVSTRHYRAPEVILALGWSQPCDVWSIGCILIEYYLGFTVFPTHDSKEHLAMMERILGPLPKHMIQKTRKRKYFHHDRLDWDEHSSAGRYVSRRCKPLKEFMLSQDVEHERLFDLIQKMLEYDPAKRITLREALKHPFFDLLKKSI
UniProt O00329, sequence (whole entry, looked up): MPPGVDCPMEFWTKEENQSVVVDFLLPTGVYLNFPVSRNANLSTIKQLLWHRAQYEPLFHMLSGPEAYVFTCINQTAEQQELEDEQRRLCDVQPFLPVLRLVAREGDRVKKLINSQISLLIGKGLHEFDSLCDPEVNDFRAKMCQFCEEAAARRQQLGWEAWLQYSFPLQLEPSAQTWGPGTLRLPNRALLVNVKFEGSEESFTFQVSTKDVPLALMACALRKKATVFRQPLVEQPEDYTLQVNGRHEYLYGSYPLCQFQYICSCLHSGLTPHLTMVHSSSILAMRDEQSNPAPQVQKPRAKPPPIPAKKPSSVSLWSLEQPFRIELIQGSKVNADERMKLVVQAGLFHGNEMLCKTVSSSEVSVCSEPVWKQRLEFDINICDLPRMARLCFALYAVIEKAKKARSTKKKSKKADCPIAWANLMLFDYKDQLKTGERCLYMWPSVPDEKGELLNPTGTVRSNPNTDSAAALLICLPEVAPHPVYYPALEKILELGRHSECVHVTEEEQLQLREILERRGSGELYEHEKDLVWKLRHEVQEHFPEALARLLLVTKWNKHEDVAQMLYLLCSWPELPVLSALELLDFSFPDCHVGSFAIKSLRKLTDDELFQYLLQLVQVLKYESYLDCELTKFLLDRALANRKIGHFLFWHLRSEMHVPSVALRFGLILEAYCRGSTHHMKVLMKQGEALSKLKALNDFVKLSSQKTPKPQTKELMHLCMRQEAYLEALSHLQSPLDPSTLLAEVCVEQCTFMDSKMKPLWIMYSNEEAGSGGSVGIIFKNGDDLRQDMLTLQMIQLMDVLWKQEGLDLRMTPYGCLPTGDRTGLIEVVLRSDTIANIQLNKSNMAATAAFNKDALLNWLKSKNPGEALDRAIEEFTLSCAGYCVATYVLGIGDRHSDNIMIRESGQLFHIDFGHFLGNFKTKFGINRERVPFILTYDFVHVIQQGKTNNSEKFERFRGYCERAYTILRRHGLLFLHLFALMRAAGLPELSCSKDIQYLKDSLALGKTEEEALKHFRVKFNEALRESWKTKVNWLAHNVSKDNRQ

Block 1
Compound: Nc1cnc(N2CCc3cc(S(=O)(=O)Nc4c(F)cc(Cl)cc4F)cc(N4CCCC4=O)c32)nc1
Effect on: cell-free assay
Method: competition with immobilised ligand
Tested at: 1 µM
target | remaining binding
Serine/threonine-protein kinase 38 (STK38, Homo sapiens, UniProt Q15208) | 99%
Serine/threonine-protein kinase BRSK1 (BRSK1, Homo sapiens, UniProt Q8TDC3) | 100%
Phosphatidylinositol 4,5-bisphosphate 3-kinase catalytic subunit delta isoform (PIK3CD, Homo sapiens, UniProt O00329) | 88%
Mast/stem cell growth factor receptor Kit (KIT, Homo sapiens, UniProt P10721, V559D/V654A) | 100%
Dual specificity protein kinase CLK1 (CLK1, Homo sapiens, UniProt P49759) | 85%
1-phosphatidylinositol 3-phosphate 5-kinase (PIKFYVE, Homo sapiens, UniProt Q9Y2I7) | 100%
Mast/stem cell growth factor receptor Kit (KIT, Homo sapiens, UniProt P10721, T670I/V559D) | 100%
Mast/stem cell growth factor receptor Kit (KIT, Homo sapiens, UniProt P10721, A829P) | 100%

Block 2
Cell line: mouse MPNST tumor cells
Method: high-content nuclear imaging
Refers to: cell number
Tested at: 10 µM
Time: 12 h
Setting: mean of 2 replicates
Relative to: plate mean
Direction: higher = more cells
SMILES | nuclei count
CC(C)C(C(=O)Nc1nccs1)c1ccc(Cl)cc1 (stereo not shown) | -0.721 z-score
OC1(c2ccc(Cl)c(C(F)(F)F)c2)CCN(CCCC(c2ccc(F)cc2)c2ccc(F)cc2)CC1 | -5.93 z-score
CCCCC1C(=O)N(c2ccccc2)N(c2ccc(O)cc2)C1=O (stereo not shown) | -2.49 z-score and -4.16 z-score
OC(CNCC(O)C1CCc2cc(F)ccc2O1)C1CCc2cc(F)ccc2O1 (stereo not shown) | -4.8 z-score and -4.9 z-score
Cc1cc2c(s1)Nc1ccccc1N=C2N1CCN(C)CC1 | 1.99 z-score and 0.293 z-score
CCCNC(C)(C)COC(=O)c1ccccc1 | 0.664 z-score
Cc1cc(C)c(S(=O)(=O)Nc2cccc(C(F)(F)F)c2)c(C)c1 | -0.339 z-score
Cc1cccc(-c2[nH]c(C(C)(C)C)nc2-c2ccc3c(c2)OCO3)n1 | -1.54 z-score

Block 3
Organism: Sarcocystis neurona
Effect on: parasite growth
Tested at: 10 µM
Time: 96 h
Setting: first screen
Relative to: untreated
SMILES | log2 fold change
Nc1nc(N)nc(-c2cc(Cl)ccc2Cl)n1 | 0.31
CN1CCN(C2=Nc3cc(F)ccc3Cc3ccccc32)CC1 | -0.16
Cc1nc2n(c(=O)c1CCN1CCC(c3noc4cc(F)ccc34)CC1)CCCC2 | -0.37
Cc1c(O)cccc1C(=O)N[C@@H](CSc1ccccc1)[C@H](O)CN1C[C@H]2CCCC[C@H]2C[C@H]1C(=O)NC(C)(C)C | -1.85
NS(=O)(=O)Cc1noc2ccccc12 | 0.15
O=S(=O)(O)CCS | 0.1
O=C1CC2(CCCC2)CC(=O)N1CCCCN1CCN(c2ncccn2)CC1 | 0.28
Cc1ccc(O)c([C@H](CCN(C(C)C)C(C)C)c2ccccc2)c1 | -0.19

Other studies, line by line
Structure (SMILES) | cell line | effect on | method | tested at | added | endpoint | value
N#Cc1c(Oc2ccc(F)c(NC(=O)Cc3cccc(C(F)(F)F)c3)c2)ccc2nc(NC(=O)C3CC3)sc12 | L929 | necroptosis protection | CCK-8 | 0.078 µM | TNF-α-induced | viability | 28.6%

A few entries again (block 1):
target | remaining binding
Dual specificity protein kinase CLK1 (CLK1, Homo sapiens, UniProt P49759) | 85%
1-phosphatidylinositol 3-phosphate 5-kinase (PIKFYVE, Homo sapiens, UniProt Q9Y2I7) | 100%
